Earlier results as cited in several papers.
Protocols differ between the studies behind these lines. Numbers after ± are the reported error.
UniProt P31645, sequence (whole entry, looked up): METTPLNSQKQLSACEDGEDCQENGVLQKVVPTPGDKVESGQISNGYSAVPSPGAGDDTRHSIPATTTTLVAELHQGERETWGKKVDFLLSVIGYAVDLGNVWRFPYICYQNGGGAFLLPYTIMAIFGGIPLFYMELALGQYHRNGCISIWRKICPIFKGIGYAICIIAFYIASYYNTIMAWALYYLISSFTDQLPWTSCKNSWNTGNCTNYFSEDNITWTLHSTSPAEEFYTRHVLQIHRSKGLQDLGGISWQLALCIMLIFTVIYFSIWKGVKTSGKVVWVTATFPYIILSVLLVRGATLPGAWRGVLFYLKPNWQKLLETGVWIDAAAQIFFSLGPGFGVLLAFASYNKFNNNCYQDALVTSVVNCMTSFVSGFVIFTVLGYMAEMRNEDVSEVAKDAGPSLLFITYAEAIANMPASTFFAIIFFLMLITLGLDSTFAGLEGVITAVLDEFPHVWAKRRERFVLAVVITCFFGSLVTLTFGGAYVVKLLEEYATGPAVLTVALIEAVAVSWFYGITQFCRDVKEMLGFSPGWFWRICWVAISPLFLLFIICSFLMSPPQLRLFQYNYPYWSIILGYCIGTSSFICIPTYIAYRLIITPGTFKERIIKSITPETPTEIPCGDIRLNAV

| SMILES | target or system | assay | test system | setting | how to read | endpoint | result |
| --- | --- | --- | --- | --- | --- | --- | --- |
| CN(C(=O)[C@H](Cc1ccccc1)NC(=O)Cc1c[nH]c2ccc(O)cc12)c1ccccc1 | HIV-1 | viral replication | TZM-GFP, wild type |  |  | EC50 | 53 ± 15 nM |
| O=C(C=C(O)C(F)(F)c1ccccc1)c1cccnc1 | Plasmodium falciparum | parasite growth | 3D7 |  |  | EC50 | 36600 ± 11100 nM |
| Cc1ccc(Nc2ncnc3ccc(-c4ccc(S(=O)(=O)N5CCOCC5)cc4)cc23)cc1 | Trypanosoma brucei | parasite growth |  |  |  | EC50 | 1200 nM |
| c1ccc2c(c1)CCCNC2c1c[nH]c2ncccc12 (stereo not drawn) | Escherichia coli | efflux pump inhibition | AG100 AcrAB-TolC expressing | 50 µM | baseline: untreated cells | relative fluorescence index | 0.12 |
| CCn1c(C)c(CC(=O)N[C@@H](Cc2ccccc2)C(=O)N(C)c2cccc(Cl)c2)c2ccccc21 | HIV-1 | viral replication | TZM-GFP, wild type |  |  | EC50 | 490 ± 200 nM |
| CC(=O)Nc1ccc(C(=O)C=C(O)C(F)(F)C(F)(F)F)cn1 | Plasmodium falciparum | parasite growth | 3D7 |  |  | EC50 | 50 ± 1 nM |
| CC(=O)Sc1ccccc1C(=O)NCCC(N)=O | HIV-1 | viral replication | human PBMC, 92HT599 |  |  | EC50 | 5740 ± 1260 nM |
| CC(C)(C)NS(=O)(=O)c1ccccc1-c1ccc2ncnc(Nc3ccc(OCc4cccc(F)c4)c(Cl)c3)c2c1 | Trypanosoma brucei | parasite growth |  |  |  | EC50 | 4700 nM |
| Cc1[nH]c2ccccc2c1CC(=O)N[C@@H](Cc1ccccc1)C(=O)N(C)c1ccccc1 | HIV-1 | viral replication | TZM-GFP, wild type |  |  | EC50 | 600 ± 200 nM |
| O=C(C=C(O)C(F)(F)C(F)(F)F)c1ccc(NCc2ccccc2)nc1 | Plasmodium falciparum | parasite growth | 3D7 |  |  | EC50 | 78 ± 4 nM |
| CN1CCN(S(=O)(=O)c2ccc(-c3ccc4ncnc(Nc5ccc(Cl)cc5)c4c3)cc2)CC1 | Trypanosoma brucei | parasite growth |  |  |  | EC50 | 2400 nM |
| CCn1c(C)c(CC(=O)N[C@@H](Cc2ccccc2)C(=O)N(C)c2ccccc2)c2ccccc21 | HIV-1 | viral replication | TZM-GFP, wild type |  |  | EC50 | 250 ± 100 nM |
| Oc1c(Cc2c[nH]c3ncccc23)cc(Cl)c2cccnc12 | COLO 320 ABCB1-overexpressing | cell viability |  |  |  | IC50 | 22500 nM |
| Cc1cc(-c2ccc(C#N)cc2)cc(C)c1Oc1ccnc(Nc2ccc(C#N)cc2)n1 | HIV-1 | viral replication | IIIB wild type |  |  | EC50 | 1 nM |
| Fc1cccc(COc2ccc(Nc3ncnc4ccc(-c5ccc(CN6CCCCC6)cc5)cc34)cc2Cl)c1 | Trypanosoma brucei | parasite growth |  |  |  | EC50 | 1500 nM |
| CC(C)(C#Cc1ccc(-c2ccc(Cl)c3c(NS(C)(=O)=O)nn(CC(F)(F)F)c23)c([C@H](Cc2ccccc2)NC(=O)Cn2nc(C(F)(F)F)c3c2C(F)(F)[C@@H]2C[C@H]32)n1)S(C)(=O)=O | HIV-1 | viral replication | wild type |  |  | EC50 | 0.39 nM |
| O=S(=O)(c1ccc(-c2ccc3ncnc(Nc4ccc(OCc5ccc(F)cc5)c(Cl)c4)c3c2)cc1)N1CCOCC1 | Trypanosoma brucei | parasite growth |  |  |  | EC50 | 1300 nM |
| CCCNc1ccc(C(=O)C=C(O)C(F)(F)C(F)(F)F)cn1 | Plasmodium falciparum | parasite growth | 3D7 |  |  | EC50 | 15 nM |
| COc1ccc(Nc2nc(Nc3ccc(OCC[18F])cc3)ncc2Br)cc1 |  |  | S180 tumour-bearing mice | intravenous, 120 min | baseline: tumour over bone | tumour to tissue ratio | 0.66 |
| Cn1cnc([N+](=O)[O-])c1Sc1ccccc1C(=O)NCCC(N)=O | HIV-1 | viral replication | CEM-SS, RF |  |  | EC50 | 3640 ± 3280 nM |
| Fc1cccc(COc2ccc(Nc3ncnc4ccc(-c5ccc(N6CCNCC6)cc5)cc34)cc2Cl)c1 | Trypanosoma brucei | parasite growth |  |  |  | EC50 | 370 nM |
| O=c1ccc(OCCCN2CCCCC2)nn1-c1ccc(Cl)c(Cl)c1 | SLC6A4 (Homo sapiens, UniProt P31645) |  |  | 1.0 µM |  | inhibition | 45.34 ± 0.4% |
| O=C(C=C(O)C(F)(F)C(F)(F)F)c1cccnc1 | Plasmodium falciparum | parasite growth | 3D7 |  |  | EC50 | 240 ± 10 nM |
| Fc1cccc(COc2ccc(Nc3ncnc4ccc(-c5cccc(N6CCNCC6)c5)cc34)cc2Cl)c1 | Trypanosoma brucei | parasite growth |  |  |  | EC50 | 250 nM |
| CCCC(=O)OCSc1ccccc1C(=O)NCCC(N)=O | HIV-1 | viral replication | human PBMC, 92HT599 |  |  | EC50 | 2000 ± 1040 nM |
| O=C(C=C(O)C(F)(F)C(F)(F)Cl)c1cccnc1 | Plasmodium falciparum | parasite growth | 3D7 |  |  | EC50 | 350 ± 30 nM |
| Cc1c(CC(=O)N[C@@H](Cc2ccccc2)C(=O)N(C)c2ccccc2)c2ccccc2n1C(C)C | HIV-1 | viral replication | TZM-GFP, wild type |  |  | EC50 | 300 ± 30 nM |

For quick reference, copied from above:
| SMILES | target or system | assay | test system | setting | how to read | endpoint | result |
| --- | --- | --- | --- | --- | --- | --- | --- |
| CC(=O)Nc1ccc(C(=O)C=C(O)C(F)(F)C(F)(F)F)cn1 | Plasmodium falciparum | parasite growth | 3D7 |  |  | EC50 | 50 ± 1 nM |
| CC(=O)Sc1ccccc1C(=O)NCCC(N)=O | HIV-1 | viral replication | human PBMC, 92HT599 |  |  | EC50 | 5740 ± 1260 nM |
